Published values of several laboratories.
Numbered parts are unrelated; each lists some results of a single study. Changes are numbered by the printed parent chain.

Set 1
Target: Interferon regulatory factor 7, full length, phosphomimetic (IRF7, Homo sapiens, UniProt Q92985, residues 1-503, S471D/S472D/S475D/S476D/S477D/S483D/S484D/S487D)
Technique: protein-binding microarray
Molecule type: double-stranded DNA, one strand shown
Sample: in vitro
Concentration: 2200 nM top
Setting: 60-bp whole probe
Added: salmon DNA 0.4 mg/ml
Relative to: random background probes
Reading: higher = stronger binding
Shared flanks, not repeated: GCCTAGCAC … GTCTTGATTCGCTTGACGCTGCTG
Target sequence (chain): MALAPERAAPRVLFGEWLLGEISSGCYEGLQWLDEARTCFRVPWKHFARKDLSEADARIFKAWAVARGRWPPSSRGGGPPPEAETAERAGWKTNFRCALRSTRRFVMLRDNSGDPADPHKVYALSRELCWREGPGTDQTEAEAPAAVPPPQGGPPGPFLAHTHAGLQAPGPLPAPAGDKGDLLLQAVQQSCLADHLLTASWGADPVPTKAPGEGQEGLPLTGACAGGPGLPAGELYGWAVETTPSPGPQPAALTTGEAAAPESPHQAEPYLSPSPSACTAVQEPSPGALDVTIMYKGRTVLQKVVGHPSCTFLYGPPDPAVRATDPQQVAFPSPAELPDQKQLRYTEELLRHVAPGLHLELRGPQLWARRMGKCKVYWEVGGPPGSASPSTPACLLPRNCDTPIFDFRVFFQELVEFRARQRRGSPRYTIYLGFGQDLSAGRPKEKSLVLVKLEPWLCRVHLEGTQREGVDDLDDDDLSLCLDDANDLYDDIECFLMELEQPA
Oligonucleotide | fitted relative affinity [z-score]
GAAGATTTCGATTACAAAAAGTGCTAG | 1.7
GACGATATCAGGCTCGAGACGTGCTAG | -0.0652
GACAGTATCGACACTGGGGACGTGCTA | -0.27
TTTCCCATGAGTCTCAATATGTGCTAG | 2.92
TCAATTTTCAATTCCTGACTGTGCTAG | 2.5
GACGATTTCAATTCCGAGACGTGCTAG | 0.93
TTAGGACTGCTTCTCCTTGAGTGCTAG | 0.566
TTGTCTCCCCCATCTTGTTCCGTGCTA | 0.996
TTAGATTTCAGACTGCATTAGTGCTAG | 0.266
GACGGTATGCTTATCCTGACGTGCTAG | 0.415
GCCTTTTTTTTTTTTTCTGAGTGCTAG | 1.6
TCAATGGTCCTGGTTTCAACTGTGCTA | 1.01
TTAGGACTGCTTTGCCTTTAGTGCTAG | 0.285
GACGGATTCGGTTTCGGGACGTGCTAG | 6.98
TCAGAAATCAACTTTTTTACTGTGCTA | -0.605
TCATCTTTGCAGATAAAACTGTGCTAG | 0.714
TATCAGCAAACTTTTCTTGAGTGCTAG | 0.131
TCACTTATTAAGATTGTGACTGTGCTA | 0.301
GACGATTTCAGTTTGGAGACGTGCTAG | 2.22

Set 2
Target: CCND2, cyclin fold, Cln2 fusion (human)
Technique: yeast growth competition, sequencing
Sample: yeast
Setting: weak parent motif
Relative to: not given
Reading: higher = stronger binding
Starting sequence: BRCA2 docking peptide (human); PSIKRNLLNEFDR; partner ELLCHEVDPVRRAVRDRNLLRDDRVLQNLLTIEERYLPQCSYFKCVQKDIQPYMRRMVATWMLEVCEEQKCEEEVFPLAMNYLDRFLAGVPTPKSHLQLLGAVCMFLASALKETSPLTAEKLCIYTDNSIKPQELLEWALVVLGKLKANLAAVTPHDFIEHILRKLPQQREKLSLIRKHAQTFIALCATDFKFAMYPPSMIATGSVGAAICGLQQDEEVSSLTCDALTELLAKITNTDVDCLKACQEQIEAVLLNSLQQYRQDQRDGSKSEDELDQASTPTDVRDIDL
Variant | normalised enrichment score
K4N | -0.303
R5H | -0.128
R5N | -0.09
L8N | 0.31
N9T | 0.366
K4W | -0.538
L7T | 0.285
F11N | -0.322
E10L | 0.0531
K4T | -0.129
R13L | -0.321
E10F | 0.194
L8G | -0.0858
D12I | -0.715
N6G | -0.576
R5W | -0.284
N9D | 0.402
R13Y | -0.0572
I3F | 0.122
L8F | 0.167
E10C | -0.519
K4I | 0.263

Set 3
Target: ABI1, truncated, D143A, DHFR fusion (Arabidopsis thaliana)
Technique: DHFR PCA, deep sequencing
Sample: yeast
Setting: methotrexate growth selection, single substitutions
Added: (+)-ABA 710 µM
Relative to: wild-type fitted maximum
Reading: higher = stronger binding
Starting sequence: PYL1, truncated, DHFR fusion (Arabidopsis thaliana); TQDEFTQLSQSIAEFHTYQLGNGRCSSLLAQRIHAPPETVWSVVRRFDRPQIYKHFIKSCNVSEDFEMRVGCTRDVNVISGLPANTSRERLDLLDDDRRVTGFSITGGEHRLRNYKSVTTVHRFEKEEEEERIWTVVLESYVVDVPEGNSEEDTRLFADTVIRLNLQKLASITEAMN
Variant | relative binding score
C72Y | 86.6%
T106C | 105%
V161Y | 89.3%
T160Y | 95%
E131M | 106%
A175F | 89.3%
V136G | 48%
V136P | -13.7%
R155T | 97.9%
R24P | 62.8%
V76Y | 99.1%
E127K | 111%
T106G | 66.4%
V40P | 14.7%
V142F | 84.2%
S150G | 92.7%
V44N | 6.12%
E127N | 105%

Set 4
Target: JUN, bZIP domain (human)
Technique: DHFR protein complementation
Sample: yeast
Setting: single substitutions, most at no-binding floor
Relative to: wild-type JUN-FOS pair
Reading: higher = stronger binding
Starting sequence: JUN, bZIP domain (human); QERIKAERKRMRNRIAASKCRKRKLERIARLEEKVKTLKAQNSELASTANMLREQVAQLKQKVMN
Variant | binding fitness [natural log]
L59V | -1.22
N42T | -1.24
V56G | -1.23
Q41S | -1.51
L45T | -1.33
L59N | -1.35
L45E | -1.28
V56P | -1.27
L52A | -1.2
A40P | -1.39
R53D | -1.21
L31D | -1.32
